Measurements collected from several papers.
Each line is one published result; not all experiments were run side by side. Values joined by “and” are separate records of one study, mostly repeats; a detail may differ. Numbers after ± are the reported error.
SRC SH3-SH2-kinase domain: Proto-oncogene tyrosine-protein kinase Src, SH3-SH2-kinase domain (SRC, Gallus gallus, UniProt P00523)
Genome polyprotein NS3 helicase domain: Genome polyprotein, NS3 helicase domain (Hepatitis C virus genotype 1b, UniProt Q9WMX2)
FGFR3: Fibroblast growth factor receptor 3 (FGFR3, Homo sapiens, UniProt P22607)

SMILES	target	test	system	setting	IC50
CN(C1COC1)C(C)(C)/C=C(\C#N)C(=O)N1CCC[C@H]1Cn1nc(-c2ccc(Oc3ccccc3)cc2F)c2c(N)ncnc21	ITK (Homo sapiens, UniProt Q08881)	enzyme activity, inhibitor			> 3 µM
Cc1ccc(S(=O)(=O)N(Cc2csc(-c3ccccc3)n2)c2ccccc2)cc1	Trypanothione synthetase (Trypanosoma brucei, UniProt Q586P2)	enzyme activity, inhibitor			> 100 µM
C[C@@H](O)[C@@H]1NC(=O)[C@H](Cc2ccccc2)NC(=O)[C@H]([C@@H](C)O)NC(=O)[C@H](CCCCN)NC(=O)[C@@H](Cc2c[nH]c3ccccc23)NC(=O)[C@H](Cc2ccccc2)NC(=O)[C@H](Cc2ccccc2)NC(=O)[C@H](CC(N)=O)NC(=O)[C@H](NC(=O)[C@@H](N)Cc2ccc(Cl)cc2)CSSC[C@@H](C(=O)N[C@@H](Cc2ccc3ccccc3c2)C(N)=O)NC1=O	SSTR4 (Homo sapiens, UniProt P31391)	ligand displacement, radioligand		pH 8.2, cell membranes	0.0053 µM
CC(C)n1nc(-c2ccc3cc(OCc4cccc(Cl)c4)ccc3c2)c2c(N)ncnc21	Tyrosine-protein kinase HCK, SH3 (HCK, Homo sapiens, UniProt P08631, K245P/K248P)	enzyme activity, inhibitor			0.027 µM
CCC(NC(=O)C(CC(C)C)NC(=O)NCc1ccccc1)C(=O)C(=O)NCc1cc(OC)cc(OC)c1 (stereo not shown)	Calpain-2 catalytic subunit (Capn2, Mus musculus, UniProt O08529)	enzyme activity, inhibitor	mouse pons-cerebellum membranes	added: calcium 2 mM	0.106 µM
Cc1ccccc1-c1cc(N2CCN(C(=O)[C@@H](N)CCCNC(=N)N)CC2)ccc1N(C)C(=O)C(C)(C)c1cc(C(F)(F)F)cc(C(F)(F)F)c1	TACR1 (Homo sapiens, UniProt P25103)	nuclear ERK activity, antagonist, FRET biosensor	HEK293T	30 to 90 min preincubation, added: substance P 10 nM	0.437 µM
C#CCO[C@H](C(=O)O)[C@H](N)C(=O)O (racemic)	Excitatory amino acid transporter 4 (Rattus norvegicus, UniProt O35921)	transporter uptake, inhibitor, radiometric			12.6 µM
Nc1nc2c(c(=O)[nH]1)[n+](Cc1cc3cc(Cl)ccc3o1)cn2Cc1cccc(CCP(=O)(O)O)c1	EIF4E (Homo sapiens, UniProt P06730)	cell-free assay, FP			3.5 µM
COc1ccc(C2=NN(C3CCCCCC3)C(=O)C3CC=CCC23)cc1OCCCCOc1ccc(-c2nnn[nH]2)cc1 (racemic)	cAMP phosphodiesterase B2 (Trypanosoma brucei, UniProt Q38F42)	enzyme activity, inhibitor			0.012 µM
Cc1oc(-c2ccccc2Cl)nc1Cn1cccc1C1=N[C@@H](c2ccccc2)CO1	Phosphatidylinositol 3,4,5-trisphosphate 5-phosphatase 1, Ptase-C2 domains (INPP5D, Homo sapiens, UniProt Q92835)	enzyme activity, inhibitor			8.99 µM
CCNC1=CC(=O)c2cc3c(cc2C1=O)CCCC3(C)C	DNA topoisomerase IB (Leishmania donovani, UniProt A0A3Q8IHS4+Q8WQM6)	DNA relaxation activity, inhibitor		added: supercoiled plasmid DNA	> 100 µM
CN(C)CCNC(=O)c1cccc2c(NCCCCc3c(N)nc(N)nc3N)c3ccccc3nc12	Muscleblind-like protein 1, with (CCUG)6 RNA (Homo sapiens, UniProt Q9NR56)	MBNL1-RNA binding, gel mobility shift		100 nM tRNA, added: (CCUG)6 RNA, 350 nM MBNL1	35 ± 3 µM
N#Cc1c(-c2ccc(Cl)cc2)cc(-c2cccs2)nc1SCC(=O)O	KAT2A (Homo sapiens, UniProt Q92830)	enzyme activity, inhibitor, radiometric			31.3 µM
Cc1cn(-c2cc(NC(=O)c3ccc(C)c(Nc4nccc(-c5cccnc5)n4)c3)cc(C(F)(F)F)c2)cn1	Proto-oncogene tyrosine-protein kinase Src, autophosphorylated (SRC, Gallus gallus, UniProt P00523, Y527F)	photo-crosslinking probe binding, competition with HT-1	mammalian cell lysate	activated kinase	> 10 µM
N#Cc1cccc(CN2C[C@@H]3C[C@H](C2)c2c(-c4ccc5ccccc5c4)ccc(=O)n2C3)c1	PLK2 (Homo sapiens, UniProt Q9NYY3)	ligand displacement, FP			95.5 µM
C[C@]12CCC(=O)C=C1CCC1C2CC[C@]2(C)C(c3cccnc3)=CCC12 (stereo partly shown)	HSD3B1 (Homo sapiens, UniProt P14060)	enzyme activity, refers to: androstenedione	LNCaP and VCaP	added: [3H]-DHEA	0.019 µM
Nc1nc(-c2ccc(Cl)cc2)cs1	Capsid scaffolding protein, protease domain (Human herpesvirus 8 type P, UniProt Q2HRB6)	protease activity, inhibitor		added: fluorogenic peptide substrate	51.2 µM and 51 µM
NC(=O)[C@@H]1CCCNC(=O)[C@H](Cc2ccc(Cl)cc2)NC(=O)[C@H](Cc2ccccc2)NC(=O)[C@H](CC2CCCCC2)NC(=O)/C=C/C(=O)N1	SRC SH3-SH2-kinase domain	enzyme activity, inhibitor, Z'-LYTE FRET		Src residues 83-533, added: 50 µM ATP	0.047 ± 0.007 µM
Cc1cc([N+](=O)[O-])cn(CC(=O)c2cc3cc(Cl)ccc3[nH]2)c1=O	DNA repair protein RAD52 homolog, with RPA and ssDNA (RAD52, Homo sapiens, UniProt P43351)	inhibitor, FRET			7 ± 0.29 µM
CC(C)C[C@H](NC(=O)[C@H](Cc1c[nH]cn1)NC(=O)[C@H](CC(=O)O)NC(=O)[C@H](CCCNC(=N)N)NC(=O)[C@H](CO)NC(=O)[C@@H]1CCCN1C(=O)[C@H](CCCNC(=N)N)NC(=O)[C@H](CCC(=O)O)NC(=O)[C@H](C)NC(=O)[C@@H](N)Cc1ccc(O)cc1)C(=O)N[C@@H](Cc1ccc(O)cc1)C(=O)N[C@@H](CC(C)C)C(=O)N1CCC[C@H]1C(=O)N[C@@H](CC(C)C)C(=O)N[C@@H](CCC(=O)O)C(=O)N1CCC[C@H]1C(=O)O	Mitogen-activated protein kinase 14 (Rattus norvegicus, UniProt P70618)	enzyme activity, inhibitor, fluorescence			> 100 µM
Cc1ccc2nc(-c3ccc(N=NNc4ccc(-c5nc6ccc(C)c(S(=O)(=O)O)c6s5)cc4)cc3)sc2c1S(=O)(=O)O	Genome polyprotein NS3 helicase domain	protein-DNA complex formation, inhibitor		added: Alexa Fluor 647-dT15 tracer	9 ± 4 µM
COc1ccc(OC)c(S(=O)(=O)NCc2nn(-c3ccccc3)nc2C)c1	Trypanothione synthetase (Trypanosoma brucei, UniProt Q586P2)	enzyme activity, inhibitor			> 100 µM

SMILES	target	test	system	setting	IC50
O=S(=O)(Nc1cscn1)c1c(F)cc(NCc2c(F)ccc(F)c2CN2CCC2)cc1F	SCN8A (Homo sapiens, UniProt Q9UQD0)	use-dependent ion current block, inhibitor, patch clamp		held at V0.5, pulse 500	0.0334 µM
O=C(O[C@@H]1Cc2c(O)cc(O)cc2O[C@@H]1c1cc(O)c(O)c(O)c1)c1cc(O)c(O)c(O)c1	DNMT1 (Homo sapiens, UniProt P26358)	enzyme activity, inhibitor			40 to 200 µM
C=CC(=O)N1CCN(c2nc(OC[C@@H]3CCCN3C)nc3c2CCN(c2cccc4cccc(C)c24)C3)C[C@@H]1CC#N	GTPase KRas (KRAS, Homo sapiens, UniProt P01116)	target engagement in cells, BRET			~0.6 µM
COC(=O)Cn1nc(-c2ccccc2)c2ccccc21	Trypanothione synthetase (Trypanosoma brucei, UniProt Q586P2)	enzyme activity, inhibitor			20 µM
NC(=O)[C@@H]1CCCNC(=O)[C@H](Cc2ccc([N+](=O)[O-])cc2)NC(=O)[C@H](Cc2c(F)c(F)c(F)c(F)c2F)NC(=O)[C@H](CC2CC2)NC(=O)/C=C/C(=O)N1	SRC SH3-SH2-kinase domain	enzyme activity, inhibitor, Z'-LYTE FRET		Src residues 83-533, added: 50 µM ATP	> 10 µM
CN(C)C/C=C/C(=O)Nc1ccc2nc(NCCCCCN(C)C)nc(NCCCCCCN(C)C)c2c1	Histone lysine demethylase PHF8, PHD (PHF8, Homo sapiens, UniProt Q9UPP1)	enzyme activity, inhibitor, TR-FRET			> 100 µM
Cc1ccc2nc(-c3ccc4nc(-c5ccc6nc(-c7ccc8nc(-c9ccc(N)cc9)sc8c7)sc6c5)sc4c3)sc2c1S(=O)(=O)O	Genome polyprotein NS3 helicase domain	DNA unwinding, inhibitor, molecular beacon helicase		added: DNA substrate	~1 µM
N=C(N)NCCC[C@@H]1NC(=O)[C@H](Cc2c[nH]c3ccccc23)NC(=O)[C@H](CCCNC(=N)N)NC(=O)[C@H](Cc2c[nH]c3ccccc23)NC(=O)[C@H](CCCNC(=N)N)NC(=O)[C@H](Cc2c[nH]c3ccccc23)NC(=O)[C@H](CCCNC(=N)N)NC(=O)[C@H](Cc2c[nH]c3ccccc23)NC(=O)[C@H](CCCNC(=N)N)NC(=O)[C@H](Cc2c[nH]c3ccccc23)NC(=O)[C@H](CCCNC(=N)N)NC(=O)[C@H](Cc2c[nH]c3ccccc23)NC1=O	ABL1 (Homo sapiens, UniProt P00519)	enzyme activity, inhibitor, radiometric			0.91 µM
COc1ccc(Cl)cc1NC(=O)Nc1cc(C)nc2ccccc12	Trypanothione synthetase (Trypanosoma brucei brucei, UniProt Q586P2)	enzyme activity, BIOMOL Green phosphate release		1 h preincubation	2 µM and 1.5 µM
CCCCn1c(=S)[nH]c2cc3ccccc3cc2c1=O	Genome polyprotein, protease (Hepatitis C virus genotype 1b, UniProt O92972)	enzyme activity, inhibitor, FRET			9.35 µM
NC(=O)[C@@H]1CCCNC(=O)[C@H](Cc2ccc([N+](=O)[O-])cc2)NC(=O)[C@H](Cc2ccccc2)NC(=O)[C@H](CC2CCCCC2)NC(=O)/C=C/C(=O)N1	SRC SH3-SH2-kinase domain	enzyme activity, inhibitor, Z'-LYTE FRET		Src residues 83-533, added: 50 µM ATP	0.006 ± 0.002 µM
Cc1ccc(/N=C/c2ccc(F)cc2)cc1	Xanthine dehydrogenase/oxidase, oxidase form (XDH, Bos taurus, UniProt P80457)	enzyme activity, inhibitor			≤ 469 µM
COC1CCC(Nc2nc(-c3nccn3C)nc3sc(-c4ccn(C)n4)c(-c4ccccc4)c23)C1 (stereo not shown)	RHOA (Homo sapiens, UniProt P61586)	GTP binding, inhibitor, cell-free GTP competition		added: fluorescent GTP 100 nmol/L	3 µM
Cc1nc2cc(Nc3nc(Nc4cc(C5CCC5)[nH]n4)c4ccccc4n3)ccc2[nH]1	ULK1 (Homo sapiens, UniProt O75385)	enzyme activity, inhibitor, radiometric			> 0.3 µM
CCOc1ccccc1-c1nc(CC(=O)NCc2cn3ccccc3n2)cs1	Trypanothione synthetase (Trypanosoma brucei brucei, UniProt Q586P2)	enzyme activity, BIOMOL Green phosphate release		1 h preincubation	20.3 µM and 20 µM
NC(=O)c1ccc[n+](C2OC(COP(=O)([O-])OP(=O)(O)OCC3OC(n4cnc5c(N)ncnc54)C(O)C3O)C(O)C2O)c1 (stereo not shown)	NADH dehydrogenase [ubiquinone] flavoprotein 1, mitochondrial, complex I (NDUFV1, Bos taurus, UniProt P25708)	NADH:APAD+ transhydrogenase activity, inhibitor		pH 7.5, 32 °C, added: NADH 0.1 mM, APAD+ 1 mM	700 µM
CN1CCN(C(=O)c2ccc(-c3ccc4c(c3)/C(=C/c3ccc(N5CCOCC5)cc3)C(=O)N4)cc2)CC1	FGFR3	enzyme activity, inhibitor			0.0065 µM
CN1C(=O)/C(=C2\Nc3ccccc3C2=O)c2cccc(Br)c21	Cyclin-dependent kinase 5, with p25 (CDK5, Homo sapiens, UniProt Q00535)				> 10 µM
C=CC(=O)N1CC=C(c2c(-c3ccc(Oc4cccc(C)n4)cc3)c3c(N)ncnc3n2C)C1	FGFR3	Caliper mobility shift		30 min preincubation, added: 100 µM ATP	0.11 µM
CC(/C=C/C(=O)NO)=C\[C@@H](C)C(=O)c1ccc(N(C)C)cc1	Receptor-type tyrosine-protein phosphatase alpha (Homo sapiens, UniProt P18433)	enzyme activity, inhibitor		added: DiFMUP	> 100 µM
Cc1cccc(Cn2c(CN3CCN(C(=O)C4CC4)CC3)nc3c2c(=O)n(C)c(=O)n3C)c1	HPGD (Homo sapiens, UniProt P15428)				> 57 µM

Some of these lines once more:
SMILES	target	test	system	setting	IC50
CCNC1=CC(=O)c2cc3c(cc2C1=O)CCCC3(C)C	DNA topoisomerase IB (Leishmania donovani, UniProt A0A3Q8IHS4+Q8WQM6)	DNA relaxation activity, inhibitor		added: supercoiled plasmid DNA	> 100 µM
C[C@]12CCC(=O)C=C1CCC1C2CC[C@]2(C)C(c3cccnc3)=CCC12 (stereo partly shown)	HSD3B1 (Homo sapiens, UniProt P14060)	enzyme activity, refers to: androstenedione	LNCaP and VCaP	added: [3H]-DHEA	0.019 µM
N#Cc1cccc(CN2C[C@@H]3C[C@H](C2)c2c(-c4ccc5ccccc5c4)ccc(=O)n2C3)c1	PLK2 (Homo sapiens, UniProt Q9NYY3)	ligand displacement, FP			95.5 µM
N#Cc1c(-c2ccc(Cl)cc2)cc(-c2cccs2)nc1SCC(=O)O	KAT2A (Homo sapiens, UniProt Q92830)	enzyme activity, inhibitor, radiometric			31.3 µM
CCCCn1c(=S)[nH]c2cc3ccccc3cc2c1=O	Genome polyprotein, protease (Hepatitis C virus genotype 1b, UniProt O92972)	enzyme activity, inhibitor, FRET			9.35 µM
Cc1nc2cc(Nc3nc(Nc4cc(C5CCC5)[nH]n4)c4ccccc4n3)ccc2[nH]1	ULK1 (Homo sapiens, UniProt O75385)	enzyme activity, inhibitor, radiometric			> 0.3 µM
